Measured values collected from several papers.
Lines come from different studies, so protocols differ. ± marks the error that the study gave.
Cell line: HeLa

`Cc1cn([C@@H]2O[C@H](CSSC[C@H]3O[C@@H](n4cc(C)c(=O)[nH]c4=O)[C@H](O)[C@@H](F)[C@@H]3O)[C@@H](O)[C@H](F)[C@H]2O)c(=O)[nH]c1=O` has an IC50 of over 500 µM (cell growth or viability).
`COc1cc(CN2CCN(c3ccc(F)cc3)CC2)c2cc3[n+](cc2c1O)CCc1cc2c(cc1-3)OCO2` has an IC50 of 4.42 µg/mL (cell growth or viability, SRB; 48 h).
`COc1ccc(CNC[C@@](O)(COCc2ccccc2)[C@@H]2CC[C@@H](C)C[C@H]2OCc2ccccc2)cc1` gave an IC50 of 2.4 µM (cell growth or viability, MTT; 72 h).
`C=CCOC(=O)[C@]12CS[C@H](c3ccccc3)N1C(=O)/C(=C(\O)CCc1ccccc1)C2=O` gave an IC50 of 7.81 µg/mL (cell growth or viability, resazurin).
`Cc1ccccc1CNC(=O)Cc1ccc(-c2ccc(OCCN3CCOCC3)cc2)cn1` has an IC50 of 2.2 µM (cell growth or viability, CCK-8; 48 h).
The IC50 of `N#Cc1c(-c2cccs2)cc(-c2cccc3ccccc23)n2c(Cc3ccccc3)nnc12` is reported as 1.14 µM (cell growth or viability, MTT; 72 h).
For `CC(=O)OC[C@H]1O[C@@H](NC(=O)NC(=O)/C=C/c2ccc(C(C)C)cc2)[C@H](OC(C)=O)[C@@H](OC(C)=O)[C@@H]1OC(C)=O`, the IC50 was 44 µM (cell growth or viability; 96 h).
`C[C@]12CC/C(=N/O)C=C1CCC1C2CC[C@]2(C)/C(=C/c3ccccn3)CCC12` (stereo partly drawn) has an IC50 of over 100 µM (cell growth or viability, MTT; 72 h).
`CO[C@@H]1[C@@H](O[C@@H]2O[C@H](C)[C@@H](O[C@H]3C[C@@](C)(O)[C@@H](O)[C@H](C)O3)[C@H](N(C)C)[C@H]2O)[C@@H](CC=O)C[C@@H](C)[C@@H](O[C@H]2CC[C@H](N(C)C)[C@@H](C)O2)/C=C/C=C/C[C@@H](C)OC(=O)C[C@H]1OC(=O)c1ccc(C(C)(C)C)cc1` has an IC50 of 26.4 µM (cell growth or viability, CCK-8; 72 h).
The IC50 of `CC(C)(C)c1cc2c(O)c(c1)Cc1cc(C(C)(C)C)cc(c1OCC(=O)Nc1cncc3ccccc13)Cc1cc(C(C)(C)C)cc(c1O)Cc1cc(C(C)(C)C)cc(c1OCC(=O)Nc1cncc3ccccc13)COC2` is reported as 6 µM (cell growth or viability, MTT; 72 h).
The IC50 of `CC(C)=CCCC(C)(O)C1CCC2(C)C1C(O)CC1C3(C)CCC(OC4OC(COC(=O)CCCCCN5C(=O)C=CC5=O)C(O)C(OC(=O)CCCCCN5C(=O)C=CC5=O)C4O)C(C)(C)C3CCC12C` (stereo not drawn) is reported as 14.2 µM (cell growth or viability, MTT).
`CC[C@@H]1C(=O)N(C)c2cnc(Nc3ccc(C(=O)NCCCC[C@H](NC(C)=O)C(N)=O)cc3OC)nc2N1C1CCCC1` has an IC50 of 0.6 µM (cell growth or viability, MTT; 48 h).
`CC12CCC3c4ccc(OCCCOc5no[n+]([O-])c5S(=O)(=O)c5ccccc5)c(Br)c4CCC3C1CCC2O` (stereo not drawn) gave an IC50 of 3.59 µM (cell proliferation, MTT; 48 h).
With `CCCCc1ccc(C(=O)O[C@@H]2CC(=O)O[C@H](C)C/C=C/C=C/[C@H](O[C@H]3CC[C@H](N(C)C)[C@@H](C)O3)[C@H](C)C[C@H](CC=O)[C@H](O[C@@H]3O[C@H](C)[C@@H](O[C@H]4C[C@@](C)(O)[C@@H](O)[C@H](C)O4)[C@H](N(C)C)[C@H]3O)[C@H]2OC)cc1` the IC50 was 1 µM (cell growth or viability, CCK-8; 72 h).
With `C=C(C)[C@@H]1CC[C@]2(COC(=O)CCC(=O)O)CC[C@]3(C)[C@H](CC[C@@H]4[C@@]5(C)CC[C@H](OC(=O)CCC(=O)O)C(C)(C)[C@@H]5CC[C@]43C)[C@@H]12` the IC50 was 8.25 µg/mL (cell growth or viability, SRB; 72 h).
`Cc1cc(C=O)cc(C)c1Oc1cc(Nc2ccc(C#N)cc2)nc2cnccc12` gave an IC50 of 13.2 ± 0.7 µM (48 h).
`Cc1cn(CC(=O)N[C@@H](Cc2ccccc2)C(=O)N[C@@H](Cc2ccccc2)C(=O)N[C@@H](Cc2ccc(O)cc2)C(=O)O)c(=O)[nH]c1=O` has an IC50 of over 500 µM.
For `COc1cccc2c1C(=O)c1c(O)c3c(c(O)c1C2=O)C[C@@](O)(C(=O)CO)C[C@@H]3O[C@H]1C[C@H](N)[C@@H](O)[C@H](C)O1`, the IC50 was 0.2 ± 0.11 µg/mL (cell viability, MTT; 2 h exposure then 72 h culture).
`CC(=O)[C@@H]1CCCN1C(=O)[C@@H]1CCCN1C(=O)[C@H](Cc1ccccc1)N(C)C(=O)OC(C)(C)C` has an IC50 of 9 µM (cell growth or viability, SRB).
For `COc1ccc(CNC(=O)Cc2ccc(-c3ccc(OCCN4CCOCC4)cc3)cn2)cc1`, the IC50 was 2 µM (cell growth or viability, CCK-8; 48 h).
With `C[C@@H]1CC[C@@H]([C@@](O)(COCc2ccccc2)Cn2cnc3ccccc32)[C@H](OCc2ccccc2)C1` the IC50 was 6.9 µM (cell growth or viability, MTT; 72 h).
For `O=C(NCc1ccccc1)Nc1ccc(-c2ccc(OCCN3CCOCC3)cc2)cn1`, the IC50 was 0.78 µM (cell growth or viability, CCK-8; 48 h).
For `Cn1[c]([Ir-3]234([NH3+])[n]5c6ccc5C(c5c(F)c(F)c(F)c(F)c5F)=C5C=CC(=[N+]52)C(c2c(F)c(F)c(F)c(F)c2F)=c2ccc([n]23)=C(c2c(F)c(F)c(F)c(F)c2F)C2=[N+]4C(=C6c3c(F)c(F)c(F)c(F)c3F)C=C2)[n+](C)c2ccccc21.F[P-](F)(F)(F)(F)F`, the IC50 was 0.37 µM (cell growth or viability, MTT; 72 h).
With `CCc1ccc([C@H](C)CC(=O)N[C@@H]2O[C@H](CO)[C@@H](O)[C@H](O)[C@H]2O)cc1` the IC50 was over 250 µM (cell growth or viability; 96 h).
`COC(=O)CNc1cc(C[S+]([O-])c2ccc3cc(Br)ccc3c2)ccc1OC` (stereo not drawn) gave an IC50 of 0.116 µM (cell growth or viability, MTS; 48 h).
`O=[N+]([O-])c1ccc(/C=N/NC(=S)Nc2ccccc2)s1` gave an IC50 of 3.6 µM (cell growth or viability).
For `CCCCCCCCCCOc1c(O)cc(C(=O)O[C@@H]2Cc3c(O)cc(O)cc3O[C@@H]2c2cc(O)c(O)c(O)c2)cc1O`, the IC50 was 112 µM (cell growth or viability, CCK-8; 24 h).
With `CC(=O)OC[C@H]1O[C@@H](NC(=O)[C@@H](C)Cc2ccc(C(C)C)cc2)[C@H](OC(C)=O)[C@@H](OC(C)=O)[C@@H]1OC(C)=O` the IC50 was 64 µM (cell growth or viability; 96 h).
`COc1cc(OC)c(/C=C/C(=O)c2c(OC)cc(OC)cc2OC)c(OC)c1` gave an IC50 of 72.2 µM (cell growth or viability, MTT; 48 h).
`[Cl][Pd-]1([Cl])[S]C(Nc2ccccc2)=N[N+]1=Cc1cccs1` has an IC50 of 22 µM (cell growth or viability).
For `NC(=O)c1ccc(-c2ccccc2Cl)c2c3c([nH]c12)CCC(N)C3` (stereo not drawn), the IC50 was 0.015 µM (cell growth or viability).
With `COc1cc([C@@H]2c3cc4c(cc3[C@H](OC(=O)CCCc3ccc(NS(=O)(=O)c5ccccc5Br)cc3)[C@H]3COC(=O)[C@H]23)OCO4)cc(OC)c1OC` the IC50 was 55.4 µM (cell growth or viability, CCK-8; 24 h).
`COc1cc(OC)c(-c2coc3c4c(c(OC)cc3c2=O)OC(C)(C)C=C4)cc1OC` gave an IC50 of 14.8 µM (cell growth or viability, MTT; 72 h).
For `CCCCCCCC[P+](c1cc(C)cc(C)c1)(c1cc(C)cc(C)c1)c1cc(C)cc(C)c1`, the IC50 was 0.32 µM (cell growth or viability, resazurin; 72 h).
`O=S([O-])c1ccccc1N=Cc1ccccc1[O-].[Cu+2].c1c[nH]cn1` gave an IC50 of 1.86 ± 0.05 µM (cell viability, MTT; 24 h).
With `F[P-](F)(F)(F)(F)F.O=C(CCC(=O)[c-]1cccc1)NCCN(CC(=O)Nc1ccc(C#CCN(Cc2ccccn2)Cc2ccccn2)cc1)C(=O)CCc1cn(Cc2ccccc2)nn1.[C-]#[O+].[C-]#[O+].[C-]#[O+].[C-]#[O+].[C-]#[O+].[C-]#[O+].[Mn+].[Re+]` the IC50 was 8 µM (cell growth or viability, resazurin; 48 h).
With `Cc1ccc2c(Cl)cc(Cl)c([O-])c2n1.Cc1ccc2c(Cl)cc(Cl)c([O-])c2n1.[Co+2].c1ccc2nc3c4cccnc4c4ncccc4c3nc2c1` the IC50 was 0.0008 µM (cell growth or viability, MTT; 48 h).
The IC50 of `C[C@H](NC(=O)Cc1ccc(-c2ccc(OCCN3CCOCC3)cc2)cn1)c1ccccc1` is reported as 0.45 µM (cell growth or viability, CCK-8; 48 h).
With `C=C1C(=O)O[C@@H]2/C=C(\C)CC/C=C(/C(=O)OC)C[C@@H](OC(=O)/C(C)=C\C)[C@@H]12` the IC50 was 17.6 µM (cell growth or viability; 24 h).
For `CC(=O)OC[C@H]1O[C@@H](NC(=O)NC(=O)/C=C/c2ccc(-c3ccccc3)cc2)[C@H](OC(C)=O)[C@@H](OC(C)=O)[C@@H]1OC(C)=O`, the IC50 was 100 µM (cell growth or viability; 96 h).
With `C[C@@H]1CC[C@@H]([C@@](O)(CNCc2ccccc2F)COCc2ccccc2)[C@H](OCc2ccccc2)C1` the IC50 was 2.6 µM (cell growth or viability, MTT; 72 h).
The IC50 of `CC1=CC(c2ccccc2)=[O+][Pt-2]([NH3+])([NH3+])[O]1.O=[N+]([O-])[O-]` (stereo not drawn) is reported as 24 µM (cell growth or viability, MTT).
For `COc1ccc(C(C)(O)C(C)(C)C(=O)O)cc1` (stereo not drawn), the IC50 was 126 µM (cell growth or viability; 72 h).
The IC50 of `CCCCCC(=O)O[C@H]1[C@H](C)O[C@@H](O[C@H]2[C@H](N(C)C)[C@@H](O)[C@H](O[C@H]3[C@@H](CC=O)C[C@@H](C)[C@@H](O[C@H]4CC[C@H](N(C)C)[C@@H](C)O4)/C=C/C=C/C[C@@H](C)OC(=O)C[C@@H](O)[C@@H]3OC)O[C@@H]2C)C[C@@]1(C)O` is reported as 23.7 µM (cell growth or viability, CCK-8; 72 h).
The IC50 of `COc1ccc(-c2noc(NC(=O)c3cccc(C(F)(F)F)c3)c2C#N)c(OC)c1` is reported as 75.8 µM (cell growth or viability, MTT; 72 h).
`S=c1n(-c2ccccc2)c2c3ccccc3nc3[n+]2[n]1[Ir-3]12([S]3)([c]3ccccc3-c3sc4ccccc4[n+]31)[c]1ccccc1-c1sc3ccccc3[n+]12` gave an IC50 of over 50 µM (cell viability, MTT; dark).
`COc1cc(C2Oc3ccc(C=C4Oc5cc(O)ccc5C4=O)cc3OC2CO)cc(OC)c1O` (stereo not drawn) has an IC50 of 54.7 µM (cell growth or viability, MTT; 72 h).
`COc1cccc2c(NCc3ccccc3)nc(NCc3cccs3)nc12` gave an IC50 of 4 ± 1 µM (ODD-Luc degradation; p97-independent substrate).
The IC50 of `CC(=O)O[C@H]1CC[C@]2(C)[C@H]3CC=C4[C@@H]5[C@@H](C)[C@H](C)CC[C@]5(C(=O)O)CC[C@@]4(C)[C@]3(C)CC[C@H]2C1(C)C` is reported as 26.1 µM (cell growth or viability, MTT; 24 h).
The IC50 of `O=[N+]([O-])c1ccc(C=[N+]2N=C(Nc3ccccc3)[S][Pt-]2([Cl])[Cl])s1` is reported as 1.7 µM (cell growth or viability).
With `S=c1n(-c2ccccc2)c2c3ccccc3nc3[n+]2[n]1[Ir-3]12([S]3)([c]3cccc4ccc5ccc[n+]1c5c34)[c]1cccc3ccc4ccc[n+]2c4c13` the IC50 was 0.0015 ± 0.0003 µM (cell viability, MTT; irradiation 450 nm, 15.5 mW/cm^2, 15 min).

Repeated from above:
`O=[N+]([O-])c1ccc(/C=N/NC(=S)Nc2ccccc2)s1` gave an IC50 of 3.6 µM (cell growth or viability).
For `CCCCCCCCCCOc1c(O)cc(C(=O)O[C@@H]2Cc3c(O)cc(O)cc3O[C@@H]2c2cc(O)c(O)c(O)c2)cc1O`, the IC50 was 112 µM (cell growth or viability, CCK-8; 24 h).
With `CC(=O)OC[C@H]1O[C@@H](NC(=O)[C@@H](C)Cc2ccc(C(C)C)cc2)[C@H](OC(C)=O)[C@@H](OC(C)=O)[C@@H]1OC(C)=O` the IC50 was 64 µM (cell growth or viability; 96 h).
`COc1cc(OC)c(/C=C/C(=O)c2c(OC)cc(OC)cc2OC)c(OC)c1` gave an IC50 of 72.2 µM (cell growth or viability, MTT; 48 h).
